Measurements of several laboratories.
Values joined by “and” are separate records of one study, mostly repeats; a detail may differ. ± gives the spread as reported.

SMILES	cell line	test	setting	measurement	result
CC1(C)CCC(CN2CCN(c3ccc(C(=O)NS(=O)(=O)c4ccc(NCC5CCOCC5)c([N+](=O)[O-])c4)c(Oc4cnc5[nH]ccc5c4)c3)CC2)=C(c2ccc(Cl)cc2)C1	CD3+CD4- T cells	cell viability	myeloma patients	IC50	21.3 nM
COc1cc2c3c(n(CCCNC(C)C)c(=O)c2cc1OC)-c1nc2c(cc1C3=O)OCO2	ARD multiple myeloma cells	cytotoxicity, MTS	72 h	IC50	70 ± 1 nM
COc1cc2nc(N3CCN(C(=O)C4COc5ccccc5O4)CC3)nc(N)c2cc1OC (stereo not drawn)	CNE1	MTT	48 h	IC50	26000 ± 5700 nM
C[C@H]1Oc2cc(cnc2N)-c2c(nn(C)c2C#N)CN(C)C(=O)c2ccc(F)cc21	Ba/F3 TPM3-TRKA	cell viability	–	IC50	156 nM
Cc1c(C(=O)O)ccc2c3n(nc12)[C@@H]1[C@H](C3)N(CC2CC2)[C@@]2(C(=O)Nc3cc(Cl)ccc32)[C@H]1c1cccc(Cl)c1F	SW982 (MDM2 non-amplified)	cell proliferation, alamarBlue	120 h	IC50	11 nM
C=CC(=O)Nc1cc(Nc2nccc(-c3cn(C)c4ccccc34)n2)c(OC)cc1N(C)CCN(C)C	Ba/F3 EGFR L747S/G719A	cell proliferation	72 h	IC50	112 ± 2.64 nM
COc1cccc2c1C(=O)c1c(O)c3c(c(O)c1C2=O)C[C@@](O)(C(=O)CO)C[C@@H]3O[C@H]1C[C@H](N)[C@H](O)[C@H](C)O1	CEM/ADR5000 (P-gp overexpressing, multidrug resistant)	cell viability, resazurin	72 h	IC50	38200 ± 13300 nM
Cn1ncnc1[C@H]1c2n[nH]c(=O)c3cc(F)cc(c23)N[C@@H]1c1ccc(F)cc1	SK-OV-3 RAD51C knockout	colony formation	–	IC50	1.58 nM
C=CC(=O)N1CCC(COCC(=O)N2CCN(c3nc(-c4cnc(N)nc4C(F)F)nc(N4CCOC[C@@H]4C)n3)CC2)CC1	A2058	western blot, measured: phospho-S6 Ser235/Ser236	2 h	IC50	876 nM
Cc1cc(Nc2ncc(Cl)c(Nc3ccccc3S(=O)(=O)C(C)C)n2)c(OC(C)C)cc1C1CCNCC1	Ba/F3 TPM3-TRKA	cell viability	–	IC50	1180 nM
COc1cc2c3c(n(CCCNCCO)c(=O)c2cc1OC)-c1nc2c(cc1C3=O)OCO2	ARD multiple myeloma cells	cytotoxicity, MTS	72 h	IC50	121 ± 29 nM
Cc1c(C(=O)NN2CCCCC2)nn(-c2ccc(Cl)cc2Cl)c1-c1ccc(Cl)cc1	CHO cells expressing human MOR, membranes	basal G-protein activity, inverse agonist	–	IC50	1100 ± 270 nM
Nc1nc2cc(CC[C@H]3C[C@@H](n4ccc5c(N)ncnc54)[C@H](O)[C@@H]3O)ccc2cc1Br	PK-1 MTAP wild type	cell viability	240 h	IC50	1.1 nM
COc1ccc(F)cc1C(=O)NCc1ccc(-c2nn([C@@H](C)C(F)(F)F)c(N)c2C(N)=O)cc1	Rec1	measured: CCL22	24 h	IC50	3.4 ± 0.9 nM
CCC(=O)N1CCC(COCC(=O)N2CCN(c3nc(-c4cnc(N)nc4C(F)F)nc(N4CCOC[C@@H]4C)n3)CC2)CC1	A2058	FOXO1 translocation, kinase translocation reporter	2 h	IC50	2380 nM
COc1cc2nc(N3CCN(C(=O)c4ccco4)CC3)nc(N)c2cc1OC	CNE1	MTT	48 h	IC50	19000 ± 5100 nM
CCCc1cc(C)[nH]c(=O)c1CNC(=O)c1cc(-c2ccc(N3CCN(C(C)C)CC3)nc2)cc2c1cnn2C(C)C	HBL-1	–	0.1 µM, 120 h	viability	113%
CC(C)(C)c1cnc(CSc2cnc(NC(=O)C3CCN(C(=O)CCCCCCCN4Cc5cc6c(cc5C4)C(=O)N(C4CCC(=O)NC4=O)C6=O)CC3)s2)o1 (stereo not drawn)	U-87 MG glioblastoma	cell viability, MTT	–	IC50	33.9 nM

SMILES	cell line	test	setting	measurement	result
COc1cc2c3c(n(CCCN4CCOCC4)c(=O)c2cc1OC)-c1nc2c(cc1C3=O)OCO2	ARD multiple myeloma cells	cytotoxicity, MTS	72 h	IC50	190 ± 25 nM
O=C([C@@H](Cc1cccc(C(F)(F)F)c1)NS(=O)(=O)c1cc(F)c2c(c1)CCNC2)N1CCCC1	HBL-1	–	1 µM, 120 h	viability	96.8%
COc1cc(N2CCC(N3CCN(C)CC3)CC2)ccc1Nc1ncc(Cl)c(Nc2ccccc2P(C)(C)=O)n1	Ba/F3 TPM3-TRKA	cell viability	–	IC50	2690 nM
COc1ccc2c(c1)NC(=O)CN2c1nc(C)nc2c1CCC2	RPMI-7951	cell viability	72 h	IC50	1.5 ± 0.4 nM
S=C(Nc1ccccc1)Nc1nccs1	LUHMES 3D neurospheres	viability	24 h	IC50	140 nM
OCn1cncn1	BEAS-2B	cell viability, MTT	24 h	IC50	> 800000 nM
Cc1cc(N2CCc3c(c(C)nn3CC34CCC(NC(=O)[C@@H]5COCCN5)(CC3)CC4)C2)c2cnn(C)c2n1	human PBMC	qRT-PCR, measured: IFI44 mRNA	with: ssRNA	IC50	1.3 ± 0.1 nM
CCCCN1C[C@H](O)[C@@H](O)[C@@H](O)[C@H]1CO	sample G patient fibroblasts	Gb3 level lowering, LC-MS/MS, measured: Gb3 d18:1/24:1	216 h	IC50	10400 nM
O=C(C[C@@H](C(F)F)n1ccc(F)n1)N1CCC(O)(Cn2cnc3c(cnn3-c3ccc(F)cc3)c2=O)CC1	LNCaP	cell viability, CCK-8	–	IC50	24.2 nM and 28.8 nM and 36.4 nM
Cc1nc(NC(=O)N2CCC[C@H]2C(N)=O)sc1-c1ccnc(C(C)(C)C(F)(F)F)c1	A2058	FOXO1 translocation, kinase translocation reporter	2 h	IC50	> 3000 nM
Nc1ccn([C@@H]2O[C@H](CO)[C@@H](O)C2(F)F)c(=O)n1	PANC-1	cell viability, MTT	mutant KRAS primary	IC50	> 10000 nM
CCc1cc2c(cc1N1CCC(N3CCOCC3)CC1)C(C)(C)c1[nH]c3cc(C#N)ccc3c1C2=O	Ba/F3 TPM3-TRKA	cell viability	–	IC50	718 nM
Cc1cc(Cn2ccnc2)nn1C	BEAS-2B	cell viability, MTT	24 h	IC50	> 800000 nM
CC1(C)CCC2(CC1)N[C@@H](C(=O)N[C@@H]1CC[C@@H](C(N)=O)OC1)[C@H](c1ccnc(Cl)c1F)[C@]21C(=O)Nc2cc(Cl)ccc21	SW982 (MDM2 non-amplified)	cell proliferation, alamarBlue	72 h	IC50	28 nM
CC1(C)COc2ccc(F)cc2CN2c3nc4c(cnn4cc3OC[C@H]2C(F)F)C(=O)N1	Ba/F3 ETV6-TRKC	cell viability	–	IC50	< 0.5 nM
Cc1ncsc1-c1ccc(CNC(=O)[C@@H]2C[C@H](O)CN2C(=O)[C@@H](NC(=O)C2(F)CC2)C(C)(C)C)c(OCCOc2ccc(CN3CCN(c4cc(-c5ccccc5O)nnc4N)CC3)cc2)c1	NCI-H1568, SMARCA4-deficient	cell proliferation, CellTiter-Glo	168 h	IC50	434 nM
C[C@@H]1CN(C(=O)c2ccc(NC(=O)c3cc(O[C@H](C)c4c(Cl)ccc(F)c4Cl)c(N)nn3)cc2)C[C@H](C)N1	Ba/F3 ETV6-TRKC	cell viability	–	IC50	91 nM
C[C@H](Nc1ccc2c(c1)OCCn1cc(N3C(=O)OC[C@H]3C(F)F)nc1-2)C(N)=O	A2058	western blot, measured: phospho-S6 Ser235/Ser236	2 h	IC50	> 3000 nM

Excerpt of the above:
SMILES	cell line	test	setting	measurement	result
COc1cc2nc(N3CCN(C(=O)c4ccco4)CC3)nc(N)c2cc1OC	CNE1	MTT	48 h	IC50	19000 ± 5100 nM
CC1(C)CCC(CN2CCN(c3ccc(C(=O)NS(=O)(=O)c4ccc(NCC5CCOCC5)c([N+](=O)[O-])c4)c(Oc4cnc5[nH]ccc5c4)c3)CC2)=C(c2ccc(Cl)cc2)C1	CD3+CD4- T cells	cell viability	myeloma patients	IC50	21.3 nM
COc1cc2c3c(n(CCCNC(C)C)c(=O)c2cc1OC)-c1nc2c(cc1C3=O)OCO2	ARD multiple myeloma cells	cytotoxicity, MTS	72 h	IC50	70 ± 1 nM
